Published values gathered from unrelated publications.
Numbered parts are unrelated; each lists some results of a single study.
UniProt Q14164, sequence (whole entry, looked up): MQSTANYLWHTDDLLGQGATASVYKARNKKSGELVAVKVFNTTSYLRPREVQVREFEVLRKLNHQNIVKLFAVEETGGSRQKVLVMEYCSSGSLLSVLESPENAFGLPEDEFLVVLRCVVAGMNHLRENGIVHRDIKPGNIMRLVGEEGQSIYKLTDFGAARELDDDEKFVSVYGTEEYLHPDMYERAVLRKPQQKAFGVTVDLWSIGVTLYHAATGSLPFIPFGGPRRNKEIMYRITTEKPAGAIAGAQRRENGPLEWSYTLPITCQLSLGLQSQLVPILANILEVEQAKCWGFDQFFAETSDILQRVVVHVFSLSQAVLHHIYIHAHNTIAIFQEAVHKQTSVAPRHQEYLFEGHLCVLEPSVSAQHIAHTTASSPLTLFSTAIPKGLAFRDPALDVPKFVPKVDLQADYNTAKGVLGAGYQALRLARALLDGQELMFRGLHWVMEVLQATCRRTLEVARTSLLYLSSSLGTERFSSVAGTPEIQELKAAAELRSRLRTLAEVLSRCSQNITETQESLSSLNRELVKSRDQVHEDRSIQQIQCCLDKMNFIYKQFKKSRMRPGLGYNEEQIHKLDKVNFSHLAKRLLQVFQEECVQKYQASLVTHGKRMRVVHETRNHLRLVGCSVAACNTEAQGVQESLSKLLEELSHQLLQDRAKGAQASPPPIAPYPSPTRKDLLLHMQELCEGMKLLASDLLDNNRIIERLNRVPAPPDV
UniProt Q9H2G2, sequence (whole entry, looked up): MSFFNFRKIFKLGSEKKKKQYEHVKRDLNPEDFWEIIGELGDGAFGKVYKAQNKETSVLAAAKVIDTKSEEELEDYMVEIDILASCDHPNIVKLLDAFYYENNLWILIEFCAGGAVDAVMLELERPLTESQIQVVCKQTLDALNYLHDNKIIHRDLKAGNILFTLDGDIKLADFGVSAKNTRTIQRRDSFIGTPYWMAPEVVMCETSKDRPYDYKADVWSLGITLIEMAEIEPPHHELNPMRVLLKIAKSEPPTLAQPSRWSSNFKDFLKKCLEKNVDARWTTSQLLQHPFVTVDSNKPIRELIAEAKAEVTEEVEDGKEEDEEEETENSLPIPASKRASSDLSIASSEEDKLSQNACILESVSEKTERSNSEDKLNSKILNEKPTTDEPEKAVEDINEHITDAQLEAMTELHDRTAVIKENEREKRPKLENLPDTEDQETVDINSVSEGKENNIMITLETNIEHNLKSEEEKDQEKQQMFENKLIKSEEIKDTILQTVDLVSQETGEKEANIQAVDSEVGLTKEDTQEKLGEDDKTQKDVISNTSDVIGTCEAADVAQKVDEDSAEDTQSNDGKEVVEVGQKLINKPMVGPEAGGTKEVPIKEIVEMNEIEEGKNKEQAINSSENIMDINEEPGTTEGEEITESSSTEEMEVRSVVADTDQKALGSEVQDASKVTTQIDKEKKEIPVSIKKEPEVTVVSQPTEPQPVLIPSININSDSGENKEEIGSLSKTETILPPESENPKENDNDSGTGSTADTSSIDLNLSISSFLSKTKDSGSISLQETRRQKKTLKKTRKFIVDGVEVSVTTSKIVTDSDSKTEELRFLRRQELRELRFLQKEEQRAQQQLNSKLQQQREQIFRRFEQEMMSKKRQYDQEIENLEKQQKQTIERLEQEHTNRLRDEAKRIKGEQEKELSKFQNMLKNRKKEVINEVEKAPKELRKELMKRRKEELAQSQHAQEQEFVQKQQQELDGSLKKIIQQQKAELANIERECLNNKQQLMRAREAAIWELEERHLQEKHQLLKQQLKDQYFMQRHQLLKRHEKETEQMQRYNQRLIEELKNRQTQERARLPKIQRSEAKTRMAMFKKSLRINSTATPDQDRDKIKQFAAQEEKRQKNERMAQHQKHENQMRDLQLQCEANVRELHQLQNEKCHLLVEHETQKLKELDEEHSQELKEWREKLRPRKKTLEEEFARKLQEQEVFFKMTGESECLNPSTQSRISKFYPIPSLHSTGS
UniProt P09769, sequence (whole entry, looked up): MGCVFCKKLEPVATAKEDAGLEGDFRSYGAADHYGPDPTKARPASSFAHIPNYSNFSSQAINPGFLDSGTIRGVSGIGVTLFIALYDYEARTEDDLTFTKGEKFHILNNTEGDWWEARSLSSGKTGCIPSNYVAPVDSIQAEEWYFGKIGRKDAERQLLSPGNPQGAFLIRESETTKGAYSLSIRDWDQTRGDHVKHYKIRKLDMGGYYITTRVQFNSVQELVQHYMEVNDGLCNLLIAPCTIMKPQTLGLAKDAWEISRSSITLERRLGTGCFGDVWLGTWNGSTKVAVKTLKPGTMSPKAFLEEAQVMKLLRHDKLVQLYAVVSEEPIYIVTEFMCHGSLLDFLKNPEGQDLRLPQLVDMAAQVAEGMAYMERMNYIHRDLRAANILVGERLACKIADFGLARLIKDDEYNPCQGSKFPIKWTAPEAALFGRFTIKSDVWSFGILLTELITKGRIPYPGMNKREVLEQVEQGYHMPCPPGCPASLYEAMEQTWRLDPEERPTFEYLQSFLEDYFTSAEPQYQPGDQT
UniProt O00444, sequence (whole entry, looked up): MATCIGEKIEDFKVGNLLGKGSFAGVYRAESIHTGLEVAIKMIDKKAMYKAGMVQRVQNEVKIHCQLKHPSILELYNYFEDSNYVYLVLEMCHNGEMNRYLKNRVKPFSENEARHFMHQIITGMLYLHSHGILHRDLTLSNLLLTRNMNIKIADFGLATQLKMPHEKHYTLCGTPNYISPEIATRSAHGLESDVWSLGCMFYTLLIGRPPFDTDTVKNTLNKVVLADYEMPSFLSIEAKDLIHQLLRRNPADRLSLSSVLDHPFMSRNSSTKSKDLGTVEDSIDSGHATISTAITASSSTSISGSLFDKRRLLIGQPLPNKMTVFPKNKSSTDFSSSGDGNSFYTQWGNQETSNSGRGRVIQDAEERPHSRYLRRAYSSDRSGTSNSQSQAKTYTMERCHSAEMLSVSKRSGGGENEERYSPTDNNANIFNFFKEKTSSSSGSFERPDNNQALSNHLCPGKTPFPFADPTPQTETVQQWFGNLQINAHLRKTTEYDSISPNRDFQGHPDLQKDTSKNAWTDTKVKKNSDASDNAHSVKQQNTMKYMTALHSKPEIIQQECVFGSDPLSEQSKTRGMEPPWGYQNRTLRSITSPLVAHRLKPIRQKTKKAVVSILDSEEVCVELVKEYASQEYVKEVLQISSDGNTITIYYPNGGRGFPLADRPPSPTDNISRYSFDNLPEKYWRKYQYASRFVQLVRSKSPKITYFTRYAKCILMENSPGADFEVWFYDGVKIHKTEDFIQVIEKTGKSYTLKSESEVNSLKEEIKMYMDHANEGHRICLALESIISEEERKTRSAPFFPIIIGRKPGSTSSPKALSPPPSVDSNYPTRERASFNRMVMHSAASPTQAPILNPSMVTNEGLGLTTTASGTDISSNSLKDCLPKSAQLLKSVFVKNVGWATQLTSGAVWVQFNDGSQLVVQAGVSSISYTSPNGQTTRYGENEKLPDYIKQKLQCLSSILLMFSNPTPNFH
UniProt P33981, sequence (whole entry, looked up): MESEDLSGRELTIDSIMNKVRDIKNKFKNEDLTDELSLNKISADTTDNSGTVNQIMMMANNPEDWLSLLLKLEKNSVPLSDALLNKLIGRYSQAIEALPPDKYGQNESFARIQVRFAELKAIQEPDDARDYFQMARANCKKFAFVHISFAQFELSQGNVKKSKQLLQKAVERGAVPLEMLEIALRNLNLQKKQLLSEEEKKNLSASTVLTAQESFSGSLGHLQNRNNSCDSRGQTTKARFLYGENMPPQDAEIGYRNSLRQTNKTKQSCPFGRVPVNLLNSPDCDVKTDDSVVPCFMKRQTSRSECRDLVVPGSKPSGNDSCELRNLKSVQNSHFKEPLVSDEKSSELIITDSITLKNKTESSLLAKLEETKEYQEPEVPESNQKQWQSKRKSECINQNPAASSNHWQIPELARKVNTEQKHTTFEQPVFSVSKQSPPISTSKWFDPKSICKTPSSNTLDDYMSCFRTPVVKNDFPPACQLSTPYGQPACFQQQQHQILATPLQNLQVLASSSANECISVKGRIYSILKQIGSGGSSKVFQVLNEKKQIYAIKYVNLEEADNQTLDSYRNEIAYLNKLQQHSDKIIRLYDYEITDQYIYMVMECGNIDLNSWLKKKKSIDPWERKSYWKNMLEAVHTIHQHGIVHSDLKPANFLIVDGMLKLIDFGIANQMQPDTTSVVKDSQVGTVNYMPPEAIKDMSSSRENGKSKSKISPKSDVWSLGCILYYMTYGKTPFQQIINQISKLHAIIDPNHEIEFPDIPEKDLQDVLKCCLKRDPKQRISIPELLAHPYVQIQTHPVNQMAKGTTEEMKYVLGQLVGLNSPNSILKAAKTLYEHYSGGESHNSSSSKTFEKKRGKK

Series 1
Target: Serine/threonine-protein kinase Nek7 (NEK7, Homo sapiens, UniProt Q8TDX7)
Observed: enzyme activity
Mode: inhibitor
Concentration: 0.5 µM
Baseline: control
Measurement: remaining activity
Target sequence (Q8TDX7 1-302): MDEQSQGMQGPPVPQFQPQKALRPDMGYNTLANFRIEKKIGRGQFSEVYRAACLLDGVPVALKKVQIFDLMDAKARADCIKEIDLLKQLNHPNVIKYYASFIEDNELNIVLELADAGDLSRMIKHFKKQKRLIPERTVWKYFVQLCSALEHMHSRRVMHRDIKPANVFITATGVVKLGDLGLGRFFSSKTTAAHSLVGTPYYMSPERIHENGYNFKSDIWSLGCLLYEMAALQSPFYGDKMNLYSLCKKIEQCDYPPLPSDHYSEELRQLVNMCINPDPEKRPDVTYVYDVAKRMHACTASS
CN(C)CCCn1cc(C2=C(c3c[nH]c4ccccc34)C(=O)NC2=O)c2ccccc21: 87.1%
Cn1cnc2cc3c(Nc4cccc(Br)c4)ncnc3cc21: 99.4%
CC(=O)O/N=C1/C(c2c(O)[nH]c3cc(Br)ccc23)=Nc2ccccc21: 91.9%
COc1cc2ncnc(N3CCN(C(=O)Nc4ccc(Oc5ccccc5)cc4)CC3)c2cc1OC: 105%
COc1ccc(Cl)cc1NC(=O)Nc1cc(C)nc2ccccc12: 103%
COc1cc2ncnc(Nc3ccc(OCc4ccccc4)cc3)c2cc1OC: 101%
COc1ccc(-c2cnc3c(-c4ccsc4)cnn3c2)cc1: 109%
Cc1nc(Nc2ncc(C(=O)Nc3c(C)cccc3Cl)s2)cc(N2CCN(CCO)CC2)n1: 91%
Cn1cc(/C=C2\C(=O)Nc3ccc(S(N)(=O)=O)cc32)c2ccccc21: 101%
CCC(=O)Nc1ccc2ncnc(Nc3cccc(Br)c3)c2c1: 92.7%
Nc1[nH]nc2nnc(-c3c(-c4ccccc4)nn4ccccc34)cc12: 95.3%
O=C1NC(=O)/C(=C/c2ccc3nccnc3c2)S1: 105%
COc1cc2ncc(-c3ccccc3)nc2cc1OC: 102%
CCOc1cc2ncnc(Nc3cccc(Br)c3)c2cc1OCC: 98.6%
O=C(Nc1ccc(Cl)cc1)c1ccccc1NCc1ccncc1: 103%
Cc1ccc(NC(=O)c2ccc(CN3CCN(C)CC3)cc2)cc1Nc1nccc(-c2cccnc2)n1: 102%
CC(C)[C@H](CO)Nc1nc(Nc2cccc(Cl)c2)c2ncn(C(C)C)c2n1: 101%
CC(C)c1nn(-c2c(Cl)cccc2Cl)c2nc(Cc3ccc(OCCO)cc3)[nH]c(=O)c12: 94%
O=c1cc(N2CCOCC2)oc2c1ccc1ccccc12: 96.6%
C[S+]([O-])c1ccc(-c2nc(-c3ccncc3)c(-c3ccc(F)cc3)[nH]2)cc1 (stereo not drawn): 98.9%

Series 2
Structure (SMILES): CS(=O)(=O)N1CCCC(NC(=O)[C@H](CCC2CCCCC2)NC(=O)c2ccc(CNC(=O)c3cnc4ccccn34)cc2)C1 (stereo partly drawn)
Observed: cell-free assay
Method: competition with immobilised ligand
Concentration: 0.1 µM
Measurement: remaining binding
MAST1 (Homo sapiens, UniProt Q9Y2H9): 94%
TTK (Homo sapiens, UniProt P33981): 91%
PDGFRA (Homo sapiens, UniProt P16234): 99%
IKBKE (Homo sapiens, UniProt Q14164): 100%
KIT (Homo sapiens, UniProt P10721, A829P): 66%
Ribosomal protein S6 kinase alpha-3, C-terminal kinase domain (RPS6KA3, Homo sapiens, UniProt P51812): 100%
EGFR (Homo sapiens, UniProt P00533, T790M): 100%
NEK9 (Homo sapiens, UniProt Q8TD19): 100%
STK32C (Homo sapiens, UniProt Q86UX6): 85%
FGR (Homo sapiens, UniProt P09769): 87%
PRKCH (Homo sapiens, UniProt P24723): 95%
BMPR1B (Homo sapiens, UniProt O00238): 100%
CSF1R (Homo sapiens, UniProt P07333): 65%
PLK4 (Homo sapiens, UniProt O00444): 100%
EGFR (Homo sapiens, UniProt P00533, L861Q): 100%
COQ8A (Homo sapiens, UniProt Q8NI60): 100%
MAP3K2 (Homo sapiens, UniProt Q9Y2U5): 100%
MET (Homo sapiens, UniProt P08581, M1250T): 69%
MAP3K12 (Homo sapiens, UniProt Q12852): 100%
CDK11A (Homo sapiens, UniProt Q9UQ88): 100%
CDKL3 (Homo sapiens, UniProt Q8IVW4): 100%
CSK (Homo sapiens, UniProt P41240): 100%

Series 3
Target: Calcium/calmodulin-dependent protein kinase type II subunit alpha (CAMK2A, Homo sapiens, UniProt Q9UQM7)
UniProt Q9UQM7, sequence (whole entry, looked up): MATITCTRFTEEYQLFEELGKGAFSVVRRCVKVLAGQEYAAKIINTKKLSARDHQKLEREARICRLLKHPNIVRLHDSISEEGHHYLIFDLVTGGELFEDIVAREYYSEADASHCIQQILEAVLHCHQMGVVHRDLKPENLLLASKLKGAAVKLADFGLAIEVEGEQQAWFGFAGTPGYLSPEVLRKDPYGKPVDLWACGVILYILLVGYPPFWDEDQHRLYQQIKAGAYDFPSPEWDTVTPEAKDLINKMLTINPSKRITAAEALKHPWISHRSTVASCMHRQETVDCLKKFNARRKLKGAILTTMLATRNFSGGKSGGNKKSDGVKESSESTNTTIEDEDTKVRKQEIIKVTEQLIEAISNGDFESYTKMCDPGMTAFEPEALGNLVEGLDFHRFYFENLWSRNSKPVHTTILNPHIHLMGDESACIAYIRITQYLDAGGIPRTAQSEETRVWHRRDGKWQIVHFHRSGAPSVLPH
Observed: enzyme activity
Mode: inhibitor
Concentration: 10 µM
Measurement: inhibition
CC(C)CC(=O)NCC(=O)O: 22%
CC(C)Oc1ccc2c(=O)c(-c3ccccc3)coc2c1: -9%
CCCc1nn(C)c2c(=O)[nH]c(-c3cc(S(=O)(=O)N4CCN(CCO)CC4)ccc3OCC)nc12: -9%
Cn1c(=O)c2c(ncn2CC2OCCO2)n(C)c1=O: -9%
C=C(NC(=O)C(=C)NC(=O)c1csc(C2=N[C@@H]3c4csc(n4)[C@H]4NC(=O)c5csc(n5)[C@H]([C@](C)(O)[C@@H](C)O)NC(=O)[C@H]5CSC(=N5)/C(=C/C)NC(=O)[C@H]([C@@H](C)O)NC(=O)c5csc(n5)[C@]3(CC2)NC(=O)[C@H](C)NC(=O)C(=C)NC(=O)[C@H](C)NC(=O)[C@H]([C@@H](C)CC)N[C@@H]2C=Cc3c([C@H](C)O)cc(nc3[C@H]2O)C(=O)O[C@@H]4C)n1)C(N)=O: -8%
C[C@H](CCC(=O)O)[C@H]1CC[C@H]2[C@@H]3[C@H](O)C[C@@H]4CC(=O)CC[C@]4(C)[C@H]3C[C@H](O)[C@]12C: -33%
OCCN1C[C@H](O)[C@@H](O)[C@H](O)[C@H]1CO: -10%
O=C(O)[C@H]1O[C@@H](Oc2cc(O)c3c(=O)cc(-c4ccc(O)cc4)oc3c2)[C@H](O)[C@@H](O)[C@@H]1O: -10%
O=C(O)[C@H]1O[C@@H](O[C@H]2[C@H](Oc3cc(O)c4c(=O)cc(-c5ccc(O)c(O)c5)oc4c3)O[C@H](C(=O)O)[C@@H](O)[C@@H]2O)[C@H](O)[C@@H](O)[C@@H]1O: -1%
COCC(=O)O: 32%
Cc1ccnc(NS(=O)(=O)c2ccc(N)cc2)n1: -5%
O=c1[nH]cnc2c1ncn2[C@H]1CC[C@@H](CO)O1: -6%
COc1c(-c2ccccc2)oc2cc(O)cc(O)c2c1=O: -1%
Cc1ccc(C=O)o1: 10%
CC(C)Cc1ccc(C(C)C(=O)OCc2ccccn2)cc1 (stereo not drawn): -8%

Series 4
Structure (SMILES): Cc1ccc(NC(=O)c2ccnc(C(F)(F)F)c2)cc1-c1cc(OCCO)nc(N2CCOCC2)c1
Concentration: 1 µM
Measurement: remaining binding
PIK3CG (Homo sapiens, UniProt P48736); competitive binding panel; baseline: vehicle: 81%
DDR1 (Homo sapiens, UniProt Q08345); competitive binding panel; baseline: vehicle: 0.3%
ERN1 (Homo sapiens, UniProt O75460); competitive binding panel; baseline: vehicle: 71%
PRKACA (Homo sapiens, UniProt P17612); competitive binding, scanMAX; PKAC-alpha, 1000 nM: 71%
TLK2 (Homo sapiens, UniProt Q86UE8); competitive binding panel; baseline: vehicle: 95%
MAPK9 (Homo sapiens, UniProt P45984); competitive binding; JNK2: 83%
SLK (Homo sapiens, UniProt Q9H2G2); competitive binding panel; baseline: vehicle: 92%
LYN (Homo sapiens, UniProt P07948); competitive binding panel; baseline: vehicle: 78%
MAP4K3 (Homo sapiens, UniProt Q8IVH8); competitive binding panel; baseline: vehicle: 100%
ANKK1 (Homo sapiens, UniProt Q8NFD2); competitive binding panel; baseline: vehicle: 81%
IGF1R (Homo sapiens, UniProt P08069); competitive binding panel; baseline: vehicle: 100%
FLT3 (Homo sapiens, UniProt P36888); competitive binding scan; autoinhibited form: 99%
MAP3K13 (Homo sapiens, UniProt O43283); competitive binding, scanMAX; LZK, 1000 nM: 94%
EIF2AK2 (Homo sapiens, UniProt P19525); competitive binding, scanMAX; PRKR, 1000 nM: 97%
TGFBR1 (Homo sapiens, UniProt P36897); competitive binding panel; baseline: vehicle: 100%
YES1 (Homo sapiens, UniProt P07947); competitive binding; YES: 87%
NTRK2 (Homo sapiens, UniProt Q16620); competitive binding; TRKB: 100%
TAOK2 (Homo sapiens, UniProt Q9UL54); competitive binding panel; baseline: vehicle: 80%
